Results pooled from the literature.
Protocols differ between the studies behind these lines.
Organism: Trypanosoma brucei
Effect on: parasite growth

`N=C(N)c1ccc(-c2ccc(-c3ccc(C(=N)N)s3)o2)cc1` has an IC50 of no more than 6 nM (RHODESIENSE STIB900).
With `CSc1ccc(OCc2ncc([N+](=O)[O-])n2C)cc1` the IC50 was 400 nM (resazurin; 74 h, trypomastigote).
`N=C(N)c1ccc(-c2ccc(-c3ccc(C(=N)N)o3)o2)cn1` gave an IC50 of no more than 6 nM (RHODESIENSE STIB900).
For `C=CCCCCCC(=O)N(C)[C@H](C(=O)N(C)[C@H](C(=O)N(C)[C@H](C(=O)N(C)[C@@H](C)C(=O)N(C)[C@@H](Cc1ccccc1)C(=O)N(C)CCCCCCCCC(=O)NCCNC(=O)CCC1=[N+]2C(=Cc3c(C)cc(C)n3[B-]2(F)F)C=C1)C(C)C)C(C)C)C(C)C`, the IC50 was 3100 nM (ATP luminescence; 48 h).
With `NCCCC(N)(C(=O)O)C(F)F` (stereo not drawn) the IC50 was 15800 nM (resazurin; trypomastigote).
With `O=c1c(O)c(-c2ccc(O)c(O)c2)oc2cc(O)cc(O)c12` the IC50 was 7.8 µg/mL (resazurin; trypomastigote).
The IC50 of `O=Cc1ccc(-c2cc3cccc([N+](=O)[O-])c3[nH]c2=O)cc1` is reported as 500 nM (resazurin; 74 h, trypomastigote).
For `COc1cc(/C=C/c2cccc(Oc3ccccc3)c2)oc(=O)c1`, the IC50 was less than 10000 nM (RHODESIENSE STIB900; trypomastigote).
`C=CCCCC[C@@H](C)C(=O)N(C)[C@H](C(=O)N(C)[C@H](C(=O)N[C@H](C(=O)N(C)[C@@H](C)C(=O)N(C)[C@@H](Cc1ccccc1)C(N)=O)C(C)C)C(C)C)C(C)C` gave an IC50 of 1900 nM (ATP luminescence; 48 h).

For quick reference, copied from above:
`N=C(N)c1ccc(-c2ccc(-c3ccc(C(=N)N)s3)o2)cc1` has an IC50 of no more than 6 nM (RHODESIENSE STIB900).
